Assay results from different studies.
A part holds a random share of what one study measured. Several values in a cell are separate wells, animals, samples, runs or records.
UniProt P28223, sequence (whole entry, looked up): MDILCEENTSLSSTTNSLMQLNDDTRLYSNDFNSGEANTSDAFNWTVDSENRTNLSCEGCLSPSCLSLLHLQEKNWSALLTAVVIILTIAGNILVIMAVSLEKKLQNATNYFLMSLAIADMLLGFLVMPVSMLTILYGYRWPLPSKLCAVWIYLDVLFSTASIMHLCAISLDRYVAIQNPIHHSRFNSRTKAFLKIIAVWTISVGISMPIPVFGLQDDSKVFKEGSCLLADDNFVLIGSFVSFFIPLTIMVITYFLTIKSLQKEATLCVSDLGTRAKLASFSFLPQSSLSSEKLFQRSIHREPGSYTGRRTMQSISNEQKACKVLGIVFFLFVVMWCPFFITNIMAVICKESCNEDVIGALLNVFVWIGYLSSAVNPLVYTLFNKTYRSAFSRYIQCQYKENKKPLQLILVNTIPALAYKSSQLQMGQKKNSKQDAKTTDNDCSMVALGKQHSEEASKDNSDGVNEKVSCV
UniProt P46098, sequence (whole entry, looked up): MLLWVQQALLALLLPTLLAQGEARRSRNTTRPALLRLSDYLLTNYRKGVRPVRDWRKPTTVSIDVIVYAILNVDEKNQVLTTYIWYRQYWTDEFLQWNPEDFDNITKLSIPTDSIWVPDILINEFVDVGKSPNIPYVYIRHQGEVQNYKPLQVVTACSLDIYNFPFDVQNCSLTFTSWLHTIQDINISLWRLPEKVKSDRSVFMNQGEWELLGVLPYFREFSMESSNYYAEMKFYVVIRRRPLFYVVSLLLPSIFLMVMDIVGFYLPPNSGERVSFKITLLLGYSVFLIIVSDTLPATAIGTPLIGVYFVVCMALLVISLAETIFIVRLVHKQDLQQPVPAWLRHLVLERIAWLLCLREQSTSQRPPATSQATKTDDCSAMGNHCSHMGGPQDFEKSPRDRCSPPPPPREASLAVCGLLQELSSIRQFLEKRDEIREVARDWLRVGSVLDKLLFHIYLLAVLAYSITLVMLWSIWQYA
UniProt P47898, sequence (whole entry, looked up): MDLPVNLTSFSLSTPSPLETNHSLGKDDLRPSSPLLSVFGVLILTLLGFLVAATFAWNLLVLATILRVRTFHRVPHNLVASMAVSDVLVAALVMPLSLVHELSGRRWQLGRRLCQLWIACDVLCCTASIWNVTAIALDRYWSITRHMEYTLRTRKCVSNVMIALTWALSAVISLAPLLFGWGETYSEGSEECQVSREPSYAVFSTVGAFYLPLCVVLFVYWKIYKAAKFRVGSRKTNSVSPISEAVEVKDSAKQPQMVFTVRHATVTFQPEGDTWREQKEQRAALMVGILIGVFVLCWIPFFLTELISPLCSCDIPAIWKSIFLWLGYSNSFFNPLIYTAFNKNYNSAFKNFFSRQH
UniProt P28221, sequence (whole entry, looked up): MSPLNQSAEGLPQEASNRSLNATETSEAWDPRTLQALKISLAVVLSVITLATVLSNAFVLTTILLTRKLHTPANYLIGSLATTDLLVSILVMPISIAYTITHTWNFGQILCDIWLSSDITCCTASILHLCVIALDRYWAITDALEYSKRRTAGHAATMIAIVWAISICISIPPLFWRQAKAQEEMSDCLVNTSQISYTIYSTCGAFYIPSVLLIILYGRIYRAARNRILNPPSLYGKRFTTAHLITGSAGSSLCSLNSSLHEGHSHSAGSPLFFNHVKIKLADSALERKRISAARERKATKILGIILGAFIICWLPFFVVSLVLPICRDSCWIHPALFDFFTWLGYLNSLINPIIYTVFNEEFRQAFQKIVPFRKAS
UniProt P28566, sequence (whole entry, looked up): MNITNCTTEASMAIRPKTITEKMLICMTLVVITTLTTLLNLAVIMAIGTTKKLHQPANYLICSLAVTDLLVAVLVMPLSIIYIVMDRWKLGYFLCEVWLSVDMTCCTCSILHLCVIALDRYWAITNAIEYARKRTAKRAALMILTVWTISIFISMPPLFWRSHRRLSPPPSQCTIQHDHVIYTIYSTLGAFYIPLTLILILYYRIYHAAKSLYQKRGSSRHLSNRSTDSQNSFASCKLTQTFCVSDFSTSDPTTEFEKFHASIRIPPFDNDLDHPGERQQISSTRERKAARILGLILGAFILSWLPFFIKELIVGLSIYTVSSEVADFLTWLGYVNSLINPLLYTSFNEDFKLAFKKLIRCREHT
UniProt P28335, sequence (whole entry, looked up): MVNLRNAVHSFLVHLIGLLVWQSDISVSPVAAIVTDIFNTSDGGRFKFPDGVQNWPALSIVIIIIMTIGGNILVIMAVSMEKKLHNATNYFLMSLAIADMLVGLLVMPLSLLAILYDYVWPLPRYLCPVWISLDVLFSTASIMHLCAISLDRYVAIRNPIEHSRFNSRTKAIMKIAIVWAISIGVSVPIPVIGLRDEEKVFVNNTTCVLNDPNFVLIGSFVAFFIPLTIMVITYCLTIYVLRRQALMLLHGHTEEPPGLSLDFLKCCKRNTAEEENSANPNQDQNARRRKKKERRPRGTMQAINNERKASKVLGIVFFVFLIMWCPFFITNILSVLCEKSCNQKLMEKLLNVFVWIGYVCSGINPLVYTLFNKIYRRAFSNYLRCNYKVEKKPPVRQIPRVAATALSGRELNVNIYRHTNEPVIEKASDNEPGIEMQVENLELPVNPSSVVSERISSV
UniProt P41595, sequence (whole entry, looked up): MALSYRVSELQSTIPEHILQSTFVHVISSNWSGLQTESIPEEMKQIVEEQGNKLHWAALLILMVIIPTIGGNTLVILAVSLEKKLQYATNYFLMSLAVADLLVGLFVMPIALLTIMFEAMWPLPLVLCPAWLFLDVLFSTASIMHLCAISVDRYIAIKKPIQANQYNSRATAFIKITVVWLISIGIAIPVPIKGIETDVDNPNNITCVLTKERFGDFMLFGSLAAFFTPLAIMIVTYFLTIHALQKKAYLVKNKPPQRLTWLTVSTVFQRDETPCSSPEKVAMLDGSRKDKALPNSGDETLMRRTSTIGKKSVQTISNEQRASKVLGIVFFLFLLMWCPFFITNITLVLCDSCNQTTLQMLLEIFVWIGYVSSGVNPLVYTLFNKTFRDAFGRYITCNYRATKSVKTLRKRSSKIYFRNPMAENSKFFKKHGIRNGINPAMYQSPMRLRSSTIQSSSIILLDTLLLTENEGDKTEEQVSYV
UniProt P08908, sequence (whole entry, looked up): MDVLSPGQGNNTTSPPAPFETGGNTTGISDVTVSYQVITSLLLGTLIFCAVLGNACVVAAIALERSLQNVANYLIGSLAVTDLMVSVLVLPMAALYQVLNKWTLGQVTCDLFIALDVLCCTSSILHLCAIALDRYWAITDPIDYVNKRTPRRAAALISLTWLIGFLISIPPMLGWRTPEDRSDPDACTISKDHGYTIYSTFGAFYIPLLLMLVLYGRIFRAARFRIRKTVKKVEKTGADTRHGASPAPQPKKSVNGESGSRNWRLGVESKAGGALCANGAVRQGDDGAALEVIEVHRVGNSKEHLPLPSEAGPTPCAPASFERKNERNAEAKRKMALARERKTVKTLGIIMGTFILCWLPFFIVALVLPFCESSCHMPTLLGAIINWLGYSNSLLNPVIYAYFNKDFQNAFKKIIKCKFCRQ

Block 1
Target: Beta-1 adrenergic receptor (ADRB1, Homo sapiens, UniProt P08588)
UniProt P08588, sequence (whole entry, looked up): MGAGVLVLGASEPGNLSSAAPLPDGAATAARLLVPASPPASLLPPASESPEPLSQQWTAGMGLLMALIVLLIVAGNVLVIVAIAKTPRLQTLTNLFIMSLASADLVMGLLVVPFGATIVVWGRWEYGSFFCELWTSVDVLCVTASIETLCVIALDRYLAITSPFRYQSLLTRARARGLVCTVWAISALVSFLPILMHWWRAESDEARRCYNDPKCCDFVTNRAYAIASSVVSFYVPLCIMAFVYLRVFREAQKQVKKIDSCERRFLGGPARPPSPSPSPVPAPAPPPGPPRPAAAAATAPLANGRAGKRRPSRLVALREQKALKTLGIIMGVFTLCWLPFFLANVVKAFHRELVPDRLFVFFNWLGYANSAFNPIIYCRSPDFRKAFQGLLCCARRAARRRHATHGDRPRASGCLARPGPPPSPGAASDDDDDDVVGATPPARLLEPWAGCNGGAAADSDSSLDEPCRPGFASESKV
Action: agonist
| Compound | Emax [%] |
| --- | --- |
| C[C@H](NCCc1ccc(O)cc1)[C@H](O)c1ccc(O)cc1 | 91.4 |
| c1ccc(C2CC2)c(OCC2=NCCN2)c1 | 90.2 |
| COc1ccc(C[C@@H](C)NC[C@H](O)c2ccc(O)c3[nH]c(=O)ccc23)cc1 | 70.1 |
| CNCC(O)c1ccc(O)c(OC)c1 (stereo not drawn) | 67 |
| C1=C(c2ccccc2)CCN(Cc2nc3ccccc3[nH]2)C1 | 41 |
| CC(Cc1ccccc1)NCCC(c1ccccc1)c1ccccc1 (stereo not drawn) | 70.2 |
| C[C@H](Cc1ccc(OCC(=O)O)cc1)NC[C@H](O)c1cccc(Cl)c1 | 99.1 |
| Cc1ccc(CNCCc2c[nH]c3ccccc23)cc1 | 54.4 |

Block 2
Organism: Sarcocystis neurona
Read-out: parasite activity
Tested at: 10 µM
Time: 96 h
| SMILES | activity class |
| --- | --- |
| CN1C(=O)COc2c(C(=O)NC3CN4CCC3CC4)cc(Cl)cc21 (stereo not drawn) | inactive |
| FC(F)(F)c1cccc(N2CCNCC2)c1 | inactive |
| C[N+]1(CCC(C(N)=O)(c2ccccc2)c2ccccc2)CCCCC1 | inactive |
| CN1CCN(C(=O)O[C@H]2c3nccnc3C(=O)N2c2ccc(Cl)cn2)CC1 | inactive |
| C[C@]12CC[C@H](O)CC1=CC[C@@H]1[C@@H]2CC[C@@]2(C)[C@H]1CC[C@]2(C)O | inactive |
| c1ccc2c(c1)Nc1ccccc1S2 | inactive |

Block 3
Structure (SMILES): CC(C)(C)c1cnc(CSc2cnc(NC(=O)C3CCN(CCCCCSc4cccc5c4CN(C4CCC(=O)NC4=O)C5=O)CC3)s2)o1 (stereo not drawn)
Host: Sprague-Dawley rat, male
Dose: dose not given
| route | time | body weight |
| --- | --- | --- |
| subcutaneous | day 3 | 226 g and 205 g and 229 g |
| subcutaneous | day 5 | 208 g and 187 g and 210 g |
| subcutaneous | day 14 | 251 g and 306 g |
| intraperitoneal | day 12 | 295 g and 258 g and 248 g |
| intraperitoneal | day 2 | 227 g and 206 g and 204 g |
| subcutaneous | day 4 | 220 g and 198 g and 214 g |
| intraperitoneal | day 1 | 205 g and 230 g and 204 g |
| intraperitoneal | day 14 | 276 g and 318 g and 279 g |

Block 4
Structure (SMILES): CNC(=O)c1cc(C(=O)NC2CC2)cn(Cc2ccccc2)c1=O
Read-out: binding
Technique: radioligand binding
Tested at: 10 µM
| target | inhibition |
| --- | --- |
| 5-hydroxytryptamine receptor 2A (HTR2A, Homo sapiens, UniProt P28223) | -8.9% |
| 5-hydroxytryptamine receptor 1E (HTR1E, Homo sapiens, UniProt P28566) | -11.9% |
| 5-hydroxytryptamine receptor 5A (HTR5A, Homo sapiens, UniProt P47898) | -4.41% |
| 5-hydroxytryptamine receptor 2C (HTR2C, Homo sapiens, UniProt P28335) | 32.1% |
| 5-hydroxytryptamine receptor 2B (HTR2B, Homo sapiens, UniProt P41595) | 16.5% |
| 5-hydroxytryptamine receptor 3A (HTR3A, Homo sapiens, UniProt P46098) | 14.3% |
| 5-hydroxytryptamine receptor 1D (HTR1D, Homo sapiens, UniProt P28221) | -21.1% |
| 5-hydroxytryptamine receptor 1A (HTR1A, Homo sapiens, UniProt P08908) | 6.03% |

Excerpt of the above (block 4):
| target | inhibition |
| --- | --- |
| 5-hydroxytryptamine receptor 5A (HTR5A, Homo sapiens, UniProt P47898) | -4.41% |
| 5-hydroxytryptamine receptor 2B (HTR2B, Homo sapiens, UniProt P41595) | 16.5% |
| 5-hydroxytryptamine receptor 1A (HTR1A, Homo sapiens, UniProt P08908) | 6.03% |
